Measured values pooled from the literature.
Lines come from different studies, so protocols differ. Numbers after ± are the reported error.
Spike glycoprotein: Spike glycoprotein (Severe acute respiratory syndrome coronavirus 2, UniProt P0DTC2)

With `C=C[C@@](C)(/C=C/c1ccc(O)cc1)CCC=C(C)C` the Kd was 40.7 µM (Spike glycoprotein; binding).
For `CC[C@H](C)[C@H](NC(=O)[C@H](CC(C)C)NC(=O)[C@H](Cc1c[nH]c2ccccc12)NC(=O)[C@H](CCC(N)=O)NC(=O)[C@@H](NC(=O)[C@H](Cc1ccccc1)NC(=O)[C@H](C)NC(=O)[C@H](CCCCNC(=O)COCCOCCNC(=O)COCCOCCNC(=O)CC[C@H](NC(=O)CCCCCCCCCCCCCCCCCCC(=O)O)C(=O)O)NC(=O)[C@H](CCC(N)=O)NC(=O)[C@H](C)NC(=O)[C@@H](NC(=O)[C@H](CCCCN)NC(=O)[C@H](CC(=O)O)NC(=O)[C@H](CC(C)C)NC(=O)C(C)(C)NC(=O)[C@@H](NC(=O)[C@H](CO)NC(=O)[C@H](Cc1ccc(O)cc1)NC(=O)[C@H](CC(=O)O)NC(=O)[C@H](CO)NC(=O)[C@@H](NC(=O)[C@H](Cc1ccccc1)NC(=O)[C@@H](NC(=O)CNC(=O)[C@H](CCC(=O)O)NC(=O)C(C)(C)NC(=O)[C@@H](N)Cc1ccc(O)cc1)[C@@H](C)O)[C@@H](C)O)[C@@H](C)CC)[C@@H](C)CC)C(C)C)C(=O)N[C@@H](C)C(=O)NCC(=O)NCC(=O)N1CCC[C@H]1C(=O)N[C@@H](CO)C(=O)N[C@@H](CO)C(=O)NCC(=O)N[C@@H](C)C(=O)N1CCC[C@H]1C(=O)N1CCC[C@H]1C(=O)N1CCC[C@H]1C(=O)N[C@@H](CO)C(N)=O`, the AUC(0-168 h) was 263 µg·h/mL (human, plasma; subcutaneous, 10.0 mg once weekly, week 15, multiple doses).
`CC[C@H](C)[C@H](NC(=O)[C@H](CC(C)C)NC(=O)[C@H](Cc1c[nH]c2ccccc12)NC(=O)[C@H](CCC(N)=O)NC(=O)[C@@H](NC(=O)[C@H](Cc1ccccc1)NC(=O)[C@H](C)NC(=O)[C@H](CCCCNC(=O)COCCOCCNC(=O)COCCOCCNC(=O)CC[C@H](NC(=O)CCCCCCCCCCCCCCCCCCC(=O)O)C(=O)O)NC(=O)[C@H](CCC(N)=O)NC(=O)[C@H](C)NC(=O)[C@@H](NC(=O)[C@H](CCCCN)NC(=O)[C@H](CC(=O)O)NC(=O)[C@H](CC(C)C)NC(=O)C(C)(C)NC(=O)[C@@H](NC(=O)[C@H](CO)NC(=O)[C@H](Cc1ccc(O)cc1)NC(=O)[C@H](CC(=O)O)NC(=O)[C@H](CO)NC(=O)[C@@H](NC(=O)[C@H](Cc1ccccc1)NC(=O)[C@@H](NC(=O)CNC(=O)[C@H](CCC(=O)O)NC(=O)C(C)(C)NC(=O)[C@@H](N)Cc1ccc(O)cc1)[C@@H](C)O)[C@@H](C)O)[C@@H](C)CC)[C@@H](C)CC)C(C)C)C(=O)N[C@@H](C)C(=O)NCC(=O)NCC(=O)N1CCC[C@H]1C(=O)N[C@@H](CO)C(=O)N[C@@H](CO)C(=O)NCC(=O)N[C@@H](C)C(=O)N1CCC[C@H]1C(=O)N1CCC[C@H]1C(=O)N1CCC[C@H]1C(=O)N[C@@H](CO)C(N)=O` gave a serum amylase of 74 ± 16.3 U/L (healthy subjects, single ascending dose; 0.25 mg, baseline).
`S=C(Nc1ccccn1)c1ccccn1` gave an inhibition of 0.451% (Replicase polyprotein 1ab, main protease (rep, Severe acute respiratory syndrome coronavirus 2, UniProt P0DTD1); viral replication, mKate2 reporter; SARS-CoV-2; 20 µM).
`CCCCc1ccc(C(=O)O)nc1` gave a Cmax of 52 ± 11 µg/mL (Sprague-Dawley rat, serum; oral gavage, 25 mg/kg).
The inhibition of `Nc1ncnc2c([C@@H]3N[C@H](CO)[C@@H](O)[C@H]3O)c[nH]c12` is reported as 0% (Junin virus; viral replication; HeLa, Romero; 1.6 µM).
Under “any TEAE, mild severity”, `Cn1cnc(Cn2c(=O)[nH]/c(=N\c3cc4cn(C)nc4cc3Cl)n(Cc3cc(F)c(F)cc3F)c2=O)n1` is recorded as 0% (human, severe renal impairment; oral, 375 mg).
With `O=C(O[C@@H]1O[C@@H]2COC(=O)c3cc(O)c(O)c(O)c3-c3c(cc(O)c(O)c3O)C(=O)O[C@H]([C@H]1O)[C@@H]2O)c1cc(O)c(O)c(O)c1` the Kd was 0.931 µM (Spike glycoprotein; binding, BLI).

A few entries again:
For `CC[C@H](C)[C@H](NC(=O)[C@H](CC(C)C)NC(=O)[C@H](Cc1c[nH]c2ccccc12)NC(=O)[C@H](CCC(N)=O)NC(=O)[C@@H](NC(=O)[C@H](Cc1ccccc1)NC(=O)[C@H](C)NC(=O)[C@H](CCCCNC(=O)COCCOCCNC(=O)COCCOCCNC(=O)CC[C@H](NC(=O)CCCCCCCCCCCCCCCCCCC(=O)O)C(=O)O)NC(=O)[C@H](CCC(N)=O)NC(=O)[C@H](C)NC(=O)[C@@H](NC(=O)[C@H](CCCCN)NC(=O)[C@H](CC(=O)O)NC(=O)[C@H](CC(C)C)NC(=O)C(C)(C)NC(=O)[C@@H](NC(=O)[C@H](CO)NC(=O)[C@H](Cc1ccc(O)cc1)NC(=O)[C@H](CC(=O)O)NC(=O)[C@H](CO)NC(=O)[C@@H](NC(=O)[C@H](Cc1ccccc1)NC(=O)[C@@H](NC(=O)CNC(=O)[C@H](CCC(=O)O)NC(=O)C(C)(C)NC(=O)[C@@H](N)Cc1ccc(O)cc1)[C@@H](C)O)[C@@H](C)O)[C@@H](C)CC)[C@@H](C)CC)C(C)C)C(=O)N[C@@H](C)C(=O)NCC(=O)NCC(=O)N1CCC[C@H]1C(=O)N[C@@H](CO)C(=O)N[C@@H](CO)C(=O)NCC(=O)N[C@@H](C)C(=O)N1CCC[C@H]1C(=O)N1CCC[C@H]1C(=O)N1CCC[C@H]1C(=O)N[C@@H](CO)C(N)=O`, the AUC(0-168 h) was 263 µg·h/mL (human, plasma; subcutaneous, 10.0 mg once weekly, week 15, multiple doses).
